Measured values gathered from unrelated publications.
Each numbered part is a random draw from the data of one study; scales do not carry over between parts. Substitutions count along the parent as printed.

Series 1
Target: CCND3, cyclin fold, Cln2 fusion (human)
Method: yeast growth competition, sequencing
Matrix: yeast
Notes: weak parent motif
Reference: not given
Direction: higher = stronger binding
Parent: WEE2 docking peptide (human); KELRQKLNFSYCE; partner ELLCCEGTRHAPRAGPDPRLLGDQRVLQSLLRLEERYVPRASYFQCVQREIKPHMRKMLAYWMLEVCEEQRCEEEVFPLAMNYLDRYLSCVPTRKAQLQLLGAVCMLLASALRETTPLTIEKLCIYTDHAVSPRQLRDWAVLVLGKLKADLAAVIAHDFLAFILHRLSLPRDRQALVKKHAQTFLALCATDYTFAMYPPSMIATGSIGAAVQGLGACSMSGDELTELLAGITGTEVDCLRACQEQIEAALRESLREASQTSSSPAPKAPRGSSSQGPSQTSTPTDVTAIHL
For `KELRQKLNFSYAE [C12A]`, “normalised enrichment score” read -0.212.
`KELRQKLNFSACE [Y11A]`: “normalised enrichment score” -0.189.
`KELRQKLNFAYCE [S10A]` — result for “normalised enrichment score”: 0.00712.
Under “normalised enrichment score”, `KALRQKLNFSYCE [E2A]` is recorded as 0.291.
For `AELRQKLNFSYCE [K1A]`, “normalised enrichment score” read -0.422.
`KELAQKLNFSYCE [R4A]` — result for “normalised enrichment score”: -0.299.

Series 2
Target: Histone acetyltransferase KAT6A, winged helix 1, GST fusion (KAT6A, Homo sapiens, UniProt Q92794, residues 1-85)
Method: protein binding microarray
Form: double-stranded DNA, one strand shown
Matrix: in vitro
Tested at: not given
Notes: 8-mer, flanks averaged, mean of 2 arrays, mostly near background
Reference: not given
Direction: higher = stronger binding
Construct (chain): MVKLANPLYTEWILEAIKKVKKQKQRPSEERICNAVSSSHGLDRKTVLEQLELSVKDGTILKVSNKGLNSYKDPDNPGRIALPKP
With `CCGTAGCC` the E-score was 0.369.
With `CCGCTTTC` the E-score was 0.241.
`CAAGATTG` gave an E-score of -0.126.
The E-score of `GCTGTCAA` is reported as -0.00865.
`CACACCTC` has an E-score of -0.0354.
For `CCAGCGCA`, the E-score was 0.179.
`AGGCGAGA` has an E-score of -0.145.
For `AGGCACCG`, the E-score was 0.0648.
The E-score of `CAATAAAC` is reported as -0.0114.
For `ACGGTCTA`, the E-score was 0.207.
The E-score of `ATGCTGGG` is reported as -0.111.
`CAGGAATC` gave an E-score of -0.223.
With `CTTCGGAC` the E-score was 0.0287.
`ACAGAGTC` gave an E-score of -0.0204.
For `GGACAGAC`, the E-score was 0.0519.
`CACTTTAC` has an E-score of -0.101.
`CTGCATCC` gave an E-score of -0.242.
`AATGCCCT` gave an E-score of -0.171.
`CATCTCGA` gave an E-score of -0.302.
With `AGCGTAAC` the E-score was 0.163.
`ACGCGCAT` has an E-score of 0.364.
For `CTGTATAC`, the E-score was -0.0505.
`AGCGCGAA` has an E-score of 0.317.
For `ATTTGGGG`, the E-score was -0.124.
With `GACGGATA` the E-score was 0.264.

Series 3
Target: FOSL1, bZIP domain (human)
Method: DHFR protein complementation
Matrix: yeast
Notes: single substitutions, most at no-binding floor
Reference: wild-type JUN-FOS pair
Direction: higher = stronger binding
Parent: JUN, bZIP domain (human); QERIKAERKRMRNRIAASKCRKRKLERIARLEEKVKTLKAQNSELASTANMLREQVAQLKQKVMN; partner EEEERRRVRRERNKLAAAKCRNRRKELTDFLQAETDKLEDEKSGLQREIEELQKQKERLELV
For `E44I`, the binding fitness was -0.543 natural log.
`R30N` has a binding fitness of -0.397 natural log.
For `A40H`, the binding fitness was -0.441 natural log.
With `L52T` the binding fitness was -1.47 natural log.
The binding fitness of `E44R` is reported as -0.537 natural log.
`R30Y` has a binding fitness of -0.356 natural log.
`V56E` gave a binding fitness of -1.45 natural log.
For `R30C`, the binding fitness was -0.36 natural log.
With `A49G` the binding fitness was -1.28 natural log.
With `A29P` the binding fitness was -1.13 natural log.
`K34R` gave a binding fitness of -0.189 natural log.
The binding fitness of `E44H` is reported as -0.575 natural log.
`Q58N` gave a binding fitness of -0.426 natural log.
`N42W` has a binding fitness of -1.39 natural log.
For `K39N`, the binding fitness was -0.848 natural log.
For `E32D`, the binding fitness was -0.575 natural log.
For `R53M`, the binding fitness was -1.19 natural log.
With `L45H` the binding fitness was -1.47 natural log.
The binding fitness of `A40Q` is reported as -0.282 natural log.
`E54N` has a binding fitness of -0.563 natural log.
For `K36R`, the binding fitness was -0.286 natural log.
The binding fitness of `A49E` is reported as -1.37 natural log.

Series 4
Target: Sal-like protein 4, full length isoform A (SALL4, Homo sapiens, UniProt Q9UJQ4, residues 1-1053)
Sequence of UniProt Q9UJQ4 (whole entry, looked up): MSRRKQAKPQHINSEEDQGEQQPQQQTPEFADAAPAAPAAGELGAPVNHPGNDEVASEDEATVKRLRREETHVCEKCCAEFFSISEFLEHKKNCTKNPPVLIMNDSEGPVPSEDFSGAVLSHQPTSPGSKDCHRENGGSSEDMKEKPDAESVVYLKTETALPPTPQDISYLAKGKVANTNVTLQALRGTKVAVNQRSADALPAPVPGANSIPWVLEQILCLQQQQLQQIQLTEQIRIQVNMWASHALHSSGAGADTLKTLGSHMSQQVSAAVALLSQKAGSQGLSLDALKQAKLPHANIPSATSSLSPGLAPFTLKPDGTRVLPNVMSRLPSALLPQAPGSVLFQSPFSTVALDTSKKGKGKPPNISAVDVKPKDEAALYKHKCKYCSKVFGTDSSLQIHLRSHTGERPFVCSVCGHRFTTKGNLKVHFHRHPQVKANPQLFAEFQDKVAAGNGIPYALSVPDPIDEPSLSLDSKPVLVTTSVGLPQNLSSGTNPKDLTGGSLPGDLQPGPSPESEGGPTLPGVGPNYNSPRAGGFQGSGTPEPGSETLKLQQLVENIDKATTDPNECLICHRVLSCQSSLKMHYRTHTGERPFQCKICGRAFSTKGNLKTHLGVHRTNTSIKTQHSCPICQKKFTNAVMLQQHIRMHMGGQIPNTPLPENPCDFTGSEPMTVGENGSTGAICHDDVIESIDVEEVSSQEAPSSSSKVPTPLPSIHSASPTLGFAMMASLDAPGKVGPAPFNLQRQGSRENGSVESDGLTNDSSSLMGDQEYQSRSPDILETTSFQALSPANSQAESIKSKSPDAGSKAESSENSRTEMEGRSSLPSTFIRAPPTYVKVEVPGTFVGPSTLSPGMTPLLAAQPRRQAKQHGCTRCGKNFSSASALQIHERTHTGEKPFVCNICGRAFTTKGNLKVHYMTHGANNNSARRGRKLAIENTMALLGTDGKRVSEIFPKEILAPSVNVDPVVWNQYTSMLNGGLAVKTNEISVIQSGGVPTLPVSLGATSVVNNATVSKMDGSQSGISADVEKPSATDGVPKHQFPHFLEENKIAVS
Method: universal PBM
Form: double-stranded DNA, one strand shown
Matrix: in vitro
Tested at: 600 nM
Notes: 8-mer, flanks averaged, mean of replicates
Direction: higher = stronger binding
The E-score of `ACATTCTA` is reported as 0.158.
`AGTTCGAA` gave an E-score of 0.0772.
For `CGTAAAAC`, the E-score was -0.0333.
`ATAGACCC` has an E-score of 0.109.
`AACCTGCC` has an E-score of -0.239.
The E-score of `GACGTAGC` is reported as -0.153.
`CACCTAAA` gave an E-score of -0.011.
`ACTTGGGC` has an E-score of -0.186.
With `CGTATTAC` the E-score was 0.184.
The E-score of `CCTAACTA` is reported as 0.132.
For `ATGTTCAG`, the E-score was 0.0908.
The E-score of `GGCTTCCA` is reported as -0.198.
For `AGCAATTA`, the E-score was 0.24.
With `CCACCCTC` the E-score was -0.175.
For `CAGCATTC`, the E-score was -0.0828.
The E-score of `GCCGTAAA` is reported as -0.0469.
With `ATGTACAA` the E-score was 0.289.
For `GGACAGAA`, the E-score was -0.0011.
With `GAATCGTC` the E-score was -0.115.
`GTTAGCGA` has an E-score of 0.172.
With `AAGAACTC` the E-score was 0.0934.
`GTCCCGAA` has an E-score of -0.227.

Series 5
Target: RING finger protein unkempt homolog, zinc fingers 1-6, GST-SBP tag (UNK, Homo sapiens, UniProt Q9C0B0, residues 30-357)
Sequence of UniProt Q9C0B0 (30-357, looked up): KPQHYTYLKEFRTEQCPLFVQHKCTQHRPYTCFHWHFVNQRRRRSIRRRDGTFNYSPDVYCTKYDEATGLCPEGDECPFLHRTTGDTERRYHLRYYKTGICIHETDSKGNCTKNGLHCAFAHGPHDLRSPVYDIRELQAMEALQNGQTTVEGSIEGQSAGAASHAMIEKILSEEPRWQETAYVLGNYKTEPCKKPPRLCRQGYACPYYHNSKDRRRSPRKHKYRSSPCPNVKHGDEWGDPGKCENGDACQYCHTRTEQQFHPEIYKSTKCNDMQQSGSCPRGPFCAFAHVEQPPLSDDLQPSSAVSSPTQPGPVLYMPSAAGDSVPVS
Method: RNA Bind-n-Seq
Form: RNA
Matrix: in vitro
Tested at: not given
Notes: RNA with constant flanks, human and mouse sites, ends assumed
Reference: input RNA pool
Direction: higher = stronger binding
Constant ends, left off below: GGGAGUUCUACAGUCCGACGAUC … CAACAGAGGAUUGAGCAUCA
`CAUACGCUGGCCGCCUAUUACCCGGACAGGCCCACGCCAGAACAACAACAGGAUAUGGCCCAGUUCAUACAUAUAUUUUCCAAGUUUUACCCCUGCGAGGAAUGUGCGGAAGACAUAAGG` has a bound/input enrichment of 0.22 ratio.
With `AAGAUGGACAACAGUGUUUUUCAUUGGUUUGUAUCAUUACCAUAUCAUUCCUUUUGCUUAAUAAGCAUUCUUGCUUUGUAACUCUGACUCCUUUUCUCAUUUCUAUAAAGCACAUGUUAU` the bound/input enrichment was 0.131 ratio.
With `UUCUAGCAGAGGCAAGAAUACAUAUUCAUAUACGCUUACUUAUGAAUUACCAUUUUAACAUUUAGAUAACAUGAAAUAUGGCCCUCUUGAAUUCUUGCUUUUAAGUUCCUUUUGAUAUGU` the bound/input enrichment was 1.88 ratio.
The bound/input enrichment of `GAAGAGAAUGAGGAGGACAGAGAAGUGUCAAGUGAAAAAGAAUUAAAUGGAGAUUCGGAUUUAGAUCCUGAAAACGAGAGUGAAGAAGAAUGAAGACAGAUGCAGCCAGCCAGUCACACG` is reported as 0.411 ratio.
With `AUCCUGAACGAGGAUAACUCUGUUGUUUUGGGUAUUUCAUCUCGGGAAGGAGAGGAGGUUAUGUUUAAAACUCCUGUGUCAAUUACUGAACAUCCCAAAAUCAAUGAGUGGCUCACAUUG` the bound/input enrichment was 0.221 ratio.
`UUGCCCAUCAGAUUUAAUCUUACUUAUGUAAGCCAUGAUGGUGAUGAUAAGAAAAGGCCAGUGAUUGUUCAUCGAGCCAUCUUGGGAUCAGUGGAAAGAAUGAUUGCUAUCCUCACAGAA` gave a bound/input enrichment of 0.137 ratio.
With `GGUGAUUAUAGCAAUCAGCAGAGUGGUUAUGGGAAAGUAUCCAGGCGAGGUGGACAUCAAAAUAGCUACAAACCAUACUAAAUUAUUCCAUUUGCAACUUAUCCCCAACAGGUGGUGAAG` the bound/input enrichment was 1.84 ratio.
For `GGCGGGGCAUCUGAUGCCCUCCUCUACAGAGCCACAAUGGCUCUGACGCUUGGUGGCACAGCCUAUGCCAUCUAUCUGUUAGCUAUGGCUGCAUUUCCCAAGAAGCAGAACUAAUGUCGU`, the bound/input enrichment was 0.185 ratio.

Series 6
Target: Ras GTPase-activating protein-binding protein 1, full length (G3BP1, Homo sapiens, UniProt Q13283)
Sequence of UniProt Q13283 (whole entry, looked up): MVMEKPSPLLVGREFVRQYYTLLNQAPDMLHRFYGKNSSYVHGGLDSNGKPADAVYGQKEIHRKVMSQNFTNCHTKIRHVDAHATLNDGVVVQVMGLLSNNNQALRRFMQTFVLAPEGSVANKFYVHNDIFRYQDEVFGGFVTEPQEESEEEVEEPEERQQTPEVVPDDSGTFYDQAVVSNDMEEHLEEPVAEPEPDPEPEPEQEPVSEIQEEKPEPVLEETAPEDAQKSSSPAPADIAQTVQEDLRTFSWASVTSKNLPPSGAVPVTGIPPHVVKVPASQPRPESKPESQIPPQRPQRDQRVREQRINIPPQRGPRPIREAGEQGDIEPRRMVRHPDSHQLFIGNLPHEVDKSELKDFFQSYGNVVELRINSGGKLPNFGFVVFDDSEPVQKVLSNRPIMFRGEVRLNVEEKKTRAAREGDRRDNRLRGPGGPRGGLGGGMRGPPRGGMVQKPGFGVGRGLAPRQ
Method: RNA Bind-n-Seq
Form: RNA
Matrix: in vitro
Tested at: 200 nM
Notes: whole 134-nt RNA, ends assumed
With: 150 mM LiCl
Reference: input library
Direction: higher = stronger binding
Each molecule: 7-deaza-guanosine replaces G
Constant ends, left off below: GGGAGUUCUACAGUCCGACGAUC … UGGAAUUCUCGGGUGUCAAGG
`UGGCCCUGGUGGCAUGCGGGGAGGAAGAGGUGGCCUCAUGGAUAGUGGUGGUCCCGGUGGAAUGUUCAGAGGUGGCCGUGGUGGAGACAG` gave a log2 enrichment of 0.14.
`UCCUGUGCUACACAUCGUAUGUACCGAAUCGGCCCCCCGGGGCCCCCCGGCCCCCCGGGAAAGUAUUAUGUUACGCCGUUCGGAUCUGCA` gave a log2 enrichment of -1.92.
`CAAGUCCUGUGCUACACAUCGUAUGUACCGAAUCGGGCCCCGGCCCCGGCCCCGGAAAGUAUUAUGUUACGCCGUUCGGAUCUGCACUUC` has a log2 enrichment of -0.985.
For `UCCUGUGCUACACAUCGUAUGUACCGAAUCGGGGAAAAAGGGAAAAAGGGGAAAAAGGGAAAGUAUUAUGUUACGCCGUUCGGAUCUGCA`, the log2 enrichment was -0.191.
`CCUCAAGUCCUGUGCUACACAUCGUAUGUACCGAAUCGGCCGGCCGGGGCCGGAAAGUAUUAUGUUACGCCGUUCGGAUCUGCACUUCCA` gave a log2 enrichment of 1.26.
The log2 enrichment of `GUCCUGUGCUACACAUCGUAUGUACCGAAUCGGGAAAAAAAGGGUUUUUGGGUUUGGGAAAGUAUUAUGUUACGCCGUUCGGAUCUGCAC` is reported as -2.28.
The log2 enrichment of `UGGGAGGUGGAUUUUGUUUAUUUUUUUAGCUCAUUUCCAGGGGAGGGAAUUUUUUUUUAAUAUGUGUCAUGAAUAAAGUUGUUUUUGAAA` is reported as -0.678.

Series 7
Target: ABI1, truncated, D143A, DHFR fusion (Arabidopsis thaliana)
Method: DHFR PCA, deep sequencing
Matrix: yeast
Notes: methotrexate growth selection, single substitutions
With: (+)-ABA 0.032 µM
Reference: wild-type fitted maximum
Direction: higher = stronger binding
Parent: PYL1, truncated, DHFR fusion (Arabidopsis thaliana); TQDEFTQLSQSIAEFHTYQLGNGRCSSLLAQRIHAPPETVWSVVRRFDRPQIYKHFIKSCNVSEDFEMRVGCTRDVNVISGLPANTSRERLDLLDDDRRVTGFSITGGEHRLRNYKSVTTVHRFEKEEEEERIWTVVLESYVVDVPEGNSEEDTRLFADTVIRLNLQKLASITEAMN; partner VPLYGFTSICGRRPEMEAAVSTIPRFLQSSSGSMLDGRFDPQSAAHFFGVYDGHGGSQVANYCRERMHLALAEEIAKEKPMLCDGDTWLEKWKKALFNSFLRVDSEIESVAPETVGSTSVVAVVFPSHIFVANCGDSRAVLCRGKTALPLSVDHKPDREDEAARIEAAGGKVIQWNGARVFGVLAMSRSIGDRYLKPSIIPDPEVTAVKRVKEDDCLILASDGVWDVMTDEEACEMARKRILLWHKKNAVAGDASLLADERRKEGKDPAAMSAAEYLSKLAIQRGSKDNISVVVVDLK
Under “relative binding score”, `I33A` is recorded as 0.0906%.
Under “relative binding score”, `W134A` is recorded as 14.7%.
`A35E`: “relative binding score” 1.81%.
Under “relative binding score”, `V43F` is recorded as -2.88%.
`L28A` — result for “relative binding score”: 2.77%.
`A158E` — result for “relative binding score”: -3.85%.
For `S140L`, “relative binding score” read 0.196%.
`T119I`: “relative binding score” -0.762%.
For `L20D`, “relative binding score” read 22.4%.
`D3A` — result for “relative binding score”: 26.4%.
`V137Q`: “relative binding score” -1.27%.
For `E147L`, “relative binding score” read 6.48%.
`I105T`: “relative binding score” -2.09%.
Under “relative binding score”, `I172W` is recorded as -0.803%.
For `V143I`, “relative binding score” read 1.27%.
`L164D`: “relative binding score” 2.49%.
Under “relative binding score”, `R69Q` is recorded as 18.8%.
`S117E`: “relative binding score” 1.04%.
Under “relative binding score”, `I33D` is recorded as 2.7%.
`F124A` — result for “relative binding score”: 7.34%.
For `G108A`, “relative binding score” read 3.06%.
Under “relative binding score”, `R69G` is recorded as 4.7%.
`S140P` — result for “relative binding score”: 8.58%.
Under “relative binding score”, `R49W` is recorded as 1.13%.
